# Measurements of several laboratories.
# Numbered parts are unrelated; each lists some results of a single study. Positions count from the first letter of the parent shown.

# Sample 1
# Target: CCNB2, cyclin fold, Cln2 fusion (human)
# Method: yeast growth competition, sequencing
# Matrix: yeast
# Notes: strong parent motif
# Baseline: not given
# Reading: higher = stronger binding
# Parent: BRCA2 docking peptide (human); PSIKRNLLNEFDR
Substitution,normalised enrichment score
PSIQRNLLNEFDR [K4Q],2.09
PSISRNLLNEFDR [K4S],2.26
PSIKANLLNEFDR [R5A],1.24
PSIKRNLLNGFDR [E10G],0.0996
PSIKRNLLWEFDR [N9W],4.02
PSIKRNLKNEFDR [L8K],1.55
PSIKRNLLSEFDR [N9S],3.99
KSIKRNLLNEFDR [P1K],3.6
WSIKRNLLNEFDR [P1W],3.77
PSIKRNRLNEFDR [L7R],0.409
PSIKRNLLNEYDR [F11Y],1.3
PSIKRNLENEFDR [L8E],2.2
CSIKRNLLNEFDR [P1C],4.32
PSIKRNLLNEFDI [R13I],4.44
PSIKRNLLNEFSR [D12S],3.05
PSIKRNLLEEFDR [N9E],3.77
PSIKSNLLNEFDR [R5S],0.406
PSIKRNLLGEFDR [N9G],3.59
ESIKRNLLNEFDR [P1E],4.18
PSIKRELLNEFDR [N6E],0.934
PSIKRLLLNEFDR [N6L],0.513
PSIKRNLLHEFDR [N9H],3.63
PSIKRNLLPEFDR [N9P],3.74
PSIPRNLLNEFDR [K4P],0.912
PSIKRNLLNFFDR [E10F],0.833

# Sample 2
# Target: RING finger protein unkempt homolog, zinc fingers 1-6, SBP tag (UNK, Homo sapiens, UniProt Q9C0B0, residues 30-357)
# Chain of UniProt Q9C0B0 (30-357, looked up): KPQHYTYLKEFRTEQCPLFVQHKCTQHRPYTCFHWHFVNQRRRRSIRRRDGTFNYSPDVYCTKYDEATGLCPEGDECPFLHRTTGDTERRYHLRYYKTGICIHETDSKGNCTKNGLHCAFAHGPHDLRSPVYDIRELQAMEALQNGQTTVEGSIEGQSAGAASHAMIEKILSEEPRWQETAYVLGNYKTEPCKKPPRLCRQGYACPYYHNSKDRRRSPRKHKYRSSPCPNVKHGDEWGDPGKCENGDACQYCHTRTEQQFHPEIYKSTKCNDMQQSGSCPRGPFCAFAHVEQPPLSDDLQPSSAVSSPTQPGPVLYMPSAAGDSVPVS
# Method: RNA Bind-n-Seq
# Form: RNA
# Matrix: in vitro
# Tested at: 100 nM
# Notes: RNA with constant flanks, vertebrate orthologous sites, ends assumed
# Baseline: input RNA pool
# Reading: higher = stronger binding
# Constant ends, left off below: GGGAGUUCUACAGUCCGACGAUC … CAACAGAGGAUUGAGCAUCA
Strand,bound/input enrichment
CUGUGUUAGCACCCCGCCAGCCUACCAGCCUCUCUGUGCCCAGCUUCAAAUGGUAUGGUCUAGCUAGAUUUUUAUUUAAAAUAUGAAAAACUGCUUUUCCCAAGAUGUUUUUUAAAAGGA,0.658 ratio
GCACAUGCCACUGUCACCAAAAACAAACUACCACUUUCCAAAUUUCAUUCAGAGCCAUUUUAGUGUUUUCCUAUUCCCUACCCCUCCCACUACUUUCAAUGAUGAAAUACCCUAAGUUCU,3.58 ratio
GUUGUGACCCAUUUAACAUACACAAGAAACUAGCCAAGAAAAAUUUGCAUGUAAUUGACUUAGAUGAUGCUACUUUUCUGAGUGCAAAAUUUGGGAGACAGCUUGUACCUGGCUGGAAAC,0.836 ratio
UCCUCUGAACCCCAUUUCUUCUGUUUCAUAGUGCAGAAAUAUUCUUUUCAACUAUAUUUUUACUGGACUUGUUUUGAUUUUAAUAGAAUUUCCAGUACAGAUGCUGUGAGCUGACAUGGA,0.618 ratio
GCAAUACCUGUGCAAAUUUCUCAACACUGAAUGAAGAGUAGUAAUUUUCAUAGUCACAGUUAGGUAGCUUUAGGGCAAUAUUGCCGAGUUUUGAAAAUGUACAAUAUGUAUAAUUUAAAA,1.29 ratio
UUGUGAGGAAGGGGAAAGACUAGAUUCUUCUCUUCCCAAGUAAAACUGAAAUAAUUUGCUUUUAUUUCUGUCUUGGAAAACAAAGAUGGCCUUUUCUCUUAAUUGUGUAACAGUACCAUC,0.282 ratio
CCCCAGCACGCUCGUAAAAAGUGUGGACUGGCUGCUUGUUUUUUCCUUAUUCUUUUUAGUUAGUUUUAUUAUGUAUGCUGCCAUUCGAACUGAGAGUAUUCGGUGGCUGAUUCCAGGACA,4.28 ratio
UCAUACUGUACGUAGAGAAUCCUUGCCAUUGGUUUCCAUUGUGAGAAUUUCUAGAAUUUAUUUAGAAUUCAGUUUUCUAAUUCAGGCUCAAUGUGUUAGUCAUGUUUAGCUCAUAAUUAA,0.277 ratio

# Sample 3
# Target: Interferon regulatory factor 7, full length, phosphomimetic (IRF7, Homo sapiens, UniProt Q92985, residues 1-503, S471D/S472D/S475D/S476D/S477D/S483D/S484D/S487D)
# Method: protein-binding microarray
# Form: double-stranded DNA, one strand shown
# Matrix: in vitro
# Tested at: 2200 nM top
# Notes: 60-bp whole probe
# Together with: salmon DNA 0.4 mg/ml
# Baseline: random background probes
# Reading: higher = stronger binding
# Constant ends, left off below: GCCTAGCAC … GTCTTGATTCGCTTGACGCTGCTG
# Residues (chain): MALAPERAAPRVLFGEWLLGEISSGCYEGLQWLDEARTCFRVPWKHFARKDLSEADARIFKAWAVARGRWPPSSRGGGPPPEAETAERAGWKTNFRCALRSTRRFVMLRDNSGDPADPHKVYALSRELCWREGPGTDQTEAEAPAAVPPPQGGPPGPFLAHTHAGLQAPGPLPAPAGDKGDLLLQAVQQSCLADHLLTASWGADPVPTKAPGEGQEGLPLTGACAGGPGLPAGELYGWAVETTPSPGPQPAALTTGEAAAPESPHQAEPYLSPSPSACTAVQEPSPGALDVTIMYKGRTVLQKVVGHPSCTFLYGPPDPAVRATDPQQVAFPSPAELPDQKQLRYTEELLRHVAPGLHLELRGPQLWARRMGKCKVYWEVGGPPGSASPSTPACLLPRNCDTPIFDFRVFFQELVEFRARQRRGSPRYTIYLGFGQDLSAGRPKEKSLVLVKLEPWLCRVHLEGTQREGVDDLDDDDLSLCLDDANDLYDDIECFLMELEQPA
Strand,fitted relative affinity
TTAGGTATCGGGTTCGGTTAGTGCTAG,1.7 z-score
GACGGTATCGGATTCGGGACGTGCTAG,0.904 z-score
TCAGTTTTGAGCTCTGTCTGGGTGCTA,1.36 z-score
TCAACTTTCCCCTTCCTACTGTGCTAG,4.72 z-score
TCACATACGAGTTTCCAACTGTGCTAG,1.46 z-score
GACGATCTCAGTCTCGCGACGTGCTAG,0.166 z-score
GACGGTAACGGGACTGGGGACGTGCTA,-0.987 z-score
ACTTCTCCATTTTTCTAGTCGTGCTAG,3.02 z-score
GACGGTTTCGACGCTGGGGACGTGCTA,1.7 z-score
TTAGAACTGAGTCTCGATAAGTGCTAG,-0.422 z-score
GACGGTCTCCTTTACCTGACGTGCTAG,1.05 z-score
GACGGATTGGGGACTGGGGACGTGCTA,-0.0526 z-score
TGAGAACTGAGTCTCGATTAGTGCTAG,-0.156 z-score
TTAGATATCAGACTGGGTTAGTGCTAG,-0.255 z-score
TCACTGCTACCCTTTGAAACTGTGCTA,0.757 z-score
TTAGGTTTCCTTACCCTTTAGTGCTAG,1.38 z-score
TTAGGTTTCGGGTGTCGGTTAGTGCTA,4.79 z-score
TTTGGACTGGACACTGGGTTAGTGCTA,-0.174 z-score
TTAGATCTCAGTTTCCATTAGTGCTAG,2.27 z-score

# Sample 4
# Target: Sal-like protein 4, full length isoform B (SALL4, Homo sapiens, UniProt Q9UJQ4-2, residues 1-616)
# Method: universal PBM
# Form: double-stranded DNA, one strand shown
# Matrix: in vitro
# Tested at: not given
# Notes: 8-mer, flanks averaged, mean of replicates
# Reading: higher = stronger binding
# Residues (chain): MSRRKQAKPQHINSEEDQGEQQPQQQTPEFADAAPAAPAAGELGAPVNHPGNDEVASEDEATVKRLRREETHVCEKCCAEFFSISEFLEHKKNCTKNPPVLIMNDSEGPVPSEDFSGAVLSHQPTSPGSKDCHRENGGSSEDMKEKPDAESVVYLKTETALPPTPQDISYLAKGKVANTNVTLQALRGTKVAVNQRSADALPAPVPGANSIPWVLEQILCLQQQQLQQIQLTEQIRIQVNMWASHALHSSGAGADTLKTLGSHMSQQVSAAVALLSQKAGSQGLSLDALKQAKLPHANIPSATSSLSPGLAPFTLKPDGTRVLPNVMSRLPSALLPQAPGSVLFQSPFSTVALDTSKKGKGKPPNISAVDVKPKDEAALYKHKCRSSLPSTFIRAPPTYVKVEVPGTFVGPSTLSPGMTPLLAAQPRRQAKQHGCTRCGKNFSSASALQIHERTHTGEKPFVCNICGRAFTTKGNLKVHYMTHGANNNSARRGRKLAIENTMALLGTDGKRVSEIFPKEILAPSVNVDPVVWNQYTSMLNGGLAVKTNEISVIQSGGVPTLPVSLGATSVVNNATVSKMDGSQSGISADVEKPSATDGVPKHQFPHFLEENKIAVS
Strand,E-score
ACGCGTCT,-0.109
GCACGACC,-0.233
AATTCAAG,0.179
CAGGACCA,-0.227
AGCACCGA,-0.108
AAACTGGC,-0.172
AACGAGTC,0.0472
AAGACATA,0.234
AATTAATC,0.276
GATCCCGA,-0.218
AGGCCTTC,-0.0956
CACATGGA,0.00482
GGATTAAA,0.0979
CTCTCAAC,-0.11
GAAGCGGC,-0.24
ACGCCATA,0.144
GACGAGGA,-0.0957
ATGCTGCC,-0.0994
TCGGCCGA,-0.0936
GCAACACC,-0.107
CGACTGTA,-0.149

# Excerpt of the above (sample 3):
Strand,fitted relative affinity
TTAGATCTCAGTTTCCATTAGTGCTAG,2.27 z-score
TTAGAACTGAGTCTCGATAAGTGCTAG,-0.422 z-score
TCAGTTTTGAGCTCTGTCTGGGTGCTA,1.36 z-score
GACGGTCTCCTTTACCTGACGTGCTAG,1.05 z-score
TTTGGACTGGACACTGGGTTAGTGCTA,-0.174 z-score
GACGGTTTCGACGCTGGGGACGTGCTA,1.7 z-score
GACGGTAACGGGACTGGGGACGTGCTA,-0.987 z-score
TTAGGTATCGGGTTCGGTTAGTGCTAG,1.7 z-score
TTAGGTTTCGGGTGTCGGTTAGTGCTA,4.79 z-score
TCAACTTTCCCCTTCCTACTGTGCTAG,4.72 z-score
